Measured values pooled from the literature.
Each numbered part is a random draw from the data of one study; scales do not carry over between parts. Positions count from the first letter of the parent shown.
UniProt P35348, sequence (whole entry, looked up): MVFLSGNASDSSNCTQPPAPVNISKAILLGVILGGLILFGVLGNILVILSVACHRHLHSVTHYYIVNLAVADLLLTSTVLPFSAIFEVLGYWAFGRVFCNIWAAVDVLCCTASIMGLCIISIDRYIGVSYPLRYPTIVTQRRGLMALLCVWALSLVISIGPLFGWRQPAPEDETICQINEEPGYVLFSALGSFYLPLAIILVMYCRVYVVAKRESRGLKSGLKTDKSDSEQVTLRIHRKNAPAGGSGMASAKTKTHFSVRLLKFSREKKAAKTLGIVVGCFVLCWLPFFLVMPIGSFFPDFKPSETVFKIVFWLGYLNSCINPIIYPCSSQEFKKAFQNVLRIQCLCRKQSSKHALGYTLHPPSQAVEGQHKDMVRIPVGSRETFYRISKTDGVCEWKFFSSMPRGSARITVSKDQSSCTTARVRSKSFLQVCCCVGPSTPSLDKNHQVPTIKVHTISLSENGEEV

Block 1 — technique: universal PBM; form: double-stranded DNA, one strand shown; medium: in vitro; tested at: not given; reading: higher = stronger binding
Target: Sal-like protein 4, full length isoform B (SALL4, Homo sapiens, UniProt Q9UJQ4-2, residues 1-616)
Notes: 8-mer, flanks averaged, mean of replicates
Construct (chain): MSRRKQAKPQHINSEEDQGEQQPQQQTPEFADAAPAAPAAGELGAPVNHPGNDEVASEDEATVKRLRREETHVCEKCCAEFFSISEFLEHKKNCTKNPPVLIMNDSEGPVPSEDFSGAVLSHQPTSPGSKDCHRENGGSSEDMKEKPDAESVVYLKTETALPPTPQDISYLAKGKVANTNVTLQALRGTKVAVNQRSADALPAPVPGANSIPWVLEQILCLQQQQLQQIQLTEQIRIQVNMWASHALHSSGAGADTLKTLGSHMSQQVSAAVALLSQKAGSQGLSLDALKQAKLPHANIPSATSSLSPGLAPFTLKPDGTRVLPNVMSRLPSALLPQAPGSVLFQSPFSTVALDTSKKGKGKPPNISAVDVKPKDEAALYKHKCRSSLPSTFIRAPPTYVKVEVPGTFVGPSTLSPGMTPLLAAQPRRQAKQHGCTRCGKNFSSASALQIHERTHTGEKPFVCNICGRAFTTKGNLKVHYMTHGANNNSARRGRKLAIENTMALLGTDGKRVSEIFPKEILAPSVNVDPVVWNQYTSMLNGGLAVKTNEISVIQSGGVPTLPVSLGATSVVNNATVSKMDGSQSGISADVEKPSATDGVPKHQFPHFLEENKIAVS
| Sequence | E-score |
| --- | --- |
| CGTGTCTA | -0.0146 |
| ATGACCGG | -0.234 |
| ATTACGGA | 0.0253 |
| ATCCAACC | -0.122 |
| ATACGCCC | -0.0942 |
| ATGGGTAA | 0.164 |
| CTGGCCAA | -0.184 |
| TATTCCAA | 0.251 |

Block 2 — target: MAFK, bZIP domain (human); technique: DHFR protein complementation; medium: yeast; relative to: wild-type JUN-FOS pair; reading: higher = stronger binding
Notes: single substitutions, most at no-binding floor
Parent: JUN, bZIP domain (human); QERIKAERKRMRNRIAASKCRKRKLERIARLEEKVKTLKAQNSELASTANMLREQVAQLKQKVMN; partner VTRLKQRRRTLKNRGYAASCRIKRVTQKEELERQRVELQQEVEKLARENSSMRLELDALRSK
| Change | binding fitness [natural log] |
| --- | --- |
| A49E | -1.46 |
| A57D | -1.49 |
| E33V | -1.48 |
| I28G | -1.51 |
| E32H | -1.46 |
| L31E | -1.56 |
| N42M | -1.35 |
| K34C | -1.44 |

Single results of other studies — tested at: 10 µM
| SMILES | target or system | observed | time | quantity | result |
| --- | --- | --- | --- | --- | --- |
| CC(=O)Nc1c(C(C)=O)c(=O)n(C)c2nc(-c3ccc(Cl)cc3Cl)c(-c3ccc(Cl)cc3)cc12 | Alpha-1A adrenergic receptor (ADRA1A, Homo sapiens, UniProt P35348) | cell-free assay |  | inhibition | -6.63% |
| O=C(CCCN1CCN(c2ccccn2)CC1)c1ccc(F)cc1 | Huh-7 |  | 24 h | viability | 97% |

Repeated from above (block 2):
| Change | binding fitness [natural log] |
| --- | --- |
| A49E | -1.46 |
| A57D | -1.49 |
